Results pooled from the literature.
Every numbered part comes from another study and shows a few of its results, in no order.

Sample 1 — technique: RNA Bind-n-Seq; form: RNA; medium: in vitro; concentration: not given; relative to: input RNA pool; direction: higher = stronger binding; measurement: bound/input enrichment
Target: RING finger protein unkempt homolog, zinc fingers 1-6, GST-SBP tag (UNK, Homo sapiens, UniProt Q9C0B0, residues 30-357)
UniProt Q9C0B0, sequence (30-357, looked up): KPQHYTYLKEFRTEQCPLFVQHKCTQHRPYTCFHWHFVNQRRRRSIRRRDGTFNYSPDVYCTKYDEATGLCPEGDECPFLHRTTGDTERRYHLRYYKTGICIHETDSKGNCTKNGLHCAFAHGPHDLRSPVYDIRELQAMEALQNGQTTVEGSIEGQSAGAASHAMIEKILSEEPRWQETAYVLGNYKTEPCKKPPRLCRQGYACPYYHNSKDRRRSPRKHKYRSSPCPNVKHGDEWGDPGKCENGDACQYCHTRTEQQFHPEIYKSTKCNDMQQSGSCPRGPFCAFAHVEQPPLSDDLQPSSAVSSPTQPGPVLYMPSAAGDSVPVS
Notes: RNA with constant flanks, human and mouse sites, ends assumed
Shared flanks, not repeated: GGGAGUUCUACAGUCCGACGAUC … CAACAGAGGAUUGAGCAUCA
UUGUGCCUCAGCAAACACAGGCGUGGAUAGAUGUUGUCUUUCUUUUGUUUUUCUAGGUGUAUCCCUAGAUGCUGCCCGUGUUUUCAAGAUGGCAGGGGUGGGAAGGGAGAGAAAGGAAGA: 0.204 ratio
UGCCUUGGUGAAUUGCUAACGUUAGUUACAUUUGGUUGCUCUAUAGAAUUUGGGCCAGCUGAAUUUAUUCCUCUUCAUCCACUAAUAACGUAUAGACCACAGCAGCUUCCAUUUCAAGAU: 0.487 ratio
AGGCUAGAAAAAGAAAUUUCUAAGUUAAAGCAGCAAAAUGAACAGCUAAUAAAACAAAAGAAUGAAUUGUUAAGCAAUAAUCAGCAUCUUUCCAAUGAGGUCAAAACUUGGAAGGAAAGA: 0.412 ratio
UUUCAUUUAAGGACUUGUGCUGCUAAGUUAAGGCCAUUGACAGCCUCCCAGACUGUUAAGACAUUUUCACAAAACAAACCAGCAGCAAUUAGGACGUUUCAACAGAUUCGGUGCUAUUCU: 0.804 ratio
UGUGACAAGCUUUAUACCUGCCGGCUGUGUCACGAUACCAAUGAAGAUCAUCAGCUAGAUCGUUUCAAAGUCAAGGAAGUGCAGUGCAUCAACUGUGAAAAACUCCAACAUGCCCAGCAG: 0.149 ratio

Sample 2 — technique: protein-binding microarray; form: double-stranded DNA, one strand shown; medium: in vitro; concentration: 2200 nM top; notes: 60-bp whole probe; added: salmon DNA 0.4 mg/ml; relative to: random background probes; direction: higher = stronger binding; measurement: fitted relative affinity; shared flanks, not repeated: GCCTAGCAC … GTCTTGATTCGCTTGACGCTGCTG
Target: Interferon regulatory factor 7, full length, phosphomimetic (IRF7, Homo sapiens, UniProt Q92985, residues 1-503, S471D/S472D/S475D/S476D/S477D/S483D/S484D/S487D)
Residues (chain): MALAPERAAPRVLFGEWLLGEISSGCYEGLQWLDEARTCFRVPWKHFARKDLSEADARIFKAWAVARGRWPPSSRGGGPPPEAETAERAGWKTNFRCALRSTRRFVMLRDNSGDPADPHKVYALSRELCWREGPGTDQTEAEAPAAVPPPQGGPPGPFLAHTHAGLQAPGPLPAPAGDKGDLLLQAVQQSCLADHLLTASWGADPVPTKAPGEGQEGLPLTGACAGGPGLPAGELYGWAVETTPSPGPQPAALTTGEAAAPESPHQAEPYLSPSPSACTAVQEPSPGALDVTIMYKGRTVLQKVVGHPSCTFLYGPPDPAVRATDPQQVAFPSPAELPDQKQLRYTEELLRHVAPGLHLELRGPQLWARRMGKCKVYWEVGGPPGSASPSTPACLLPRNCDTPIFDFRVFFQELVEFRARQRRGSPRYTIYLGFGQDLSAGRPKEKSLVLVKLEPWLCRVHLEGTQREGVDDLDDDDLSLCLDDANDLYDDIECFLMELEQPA
TTAGATCTCAGTTTCGATTCGTGCTAG: 10.9 z-score
AACGGACTGCTTCTCCTGACGTGCTAG: 0.581 z-score
TTAGGTATCTTACTGCTTTAGTGCTAG: 0.236 z-score
TTAGATCTCAGACCGGATTAGTGCTAG: -0.23 z-score
GACGATTACGGGTTTCGAGACGTGCTA: 1.72 z-score

Sample 3 — technique: protein binding microarray; form: double-stranded DNA, one strand shown; medium: in vitro; concentration: not given; relative to: not given; direction: higher = stronger binding; measurement: E-score
Target: Histone acetyltransferase KAT6A, both winged helices, GST fusion (KAT6A, Homo sapiens, UniProt Q92794, residues 1-181)
Notes: 8-mer, flanks averaged, mean of 2 arrays, mostly near background
Construct (chain): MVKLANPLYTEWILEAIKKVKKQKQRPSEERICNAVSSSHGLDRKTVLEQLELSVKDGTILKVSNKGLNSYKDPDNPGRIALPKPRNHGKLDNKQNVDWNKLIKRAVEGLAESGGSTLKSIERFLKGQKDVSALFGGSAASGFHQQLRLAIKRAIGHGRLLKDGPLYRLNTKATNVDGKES
CTCGGATC: 0.0149
TAGAAGGA: -0.0184
GTGATTAA: -0.0202
GATCCTAA: -0.092
ACCAATTG: -0.0743

Other studies, line by line
PhoQ, residues 284 288 289 292 302 303 NLCILV — fold induction (PhoP, residues 12 14 15 18 19 AGCRL (Escherichia coli, UniProt P23836); Sort-seq, measured: YFP reporter; E. coli; PhoQ-PhoP variant library, added: 10 µM Mg2+; relative to: high Mg2+ state, higher = stronger signaling): 4.14

Excerpt of the above (sample 2):
TTAGATCTCAGACCGGATTAGTGCTAG: -0.23 z-score
AACGGACTGCTTCTCCTGACGTGCTAG: 0.581 z-score
